Measured values collected from several papers.
Numbered parts are unrelated; each lists some results of a single study.

Block 1 — method: protein-binding microarray; molecule type: double-stranded DNA, one strand shown; sample: in vitro; tested at: 2200 nM top; notes: 60-bp whole probe; added: salmon DNA 0.4 mg/ml; baseline: random background probes; direction: higher = stronger binding; shared flanks, not repeated: GCCTAGCAC … GTCTTGATTCGCTTGACGCTGCTG
Target: Interferon regulatory factor 7, full length, phosphomimetic (IRF7, Homo sapiens, UniProt Q92985, residues 1-503, S471D/S472D/S475D/S476D/S477D/S483D/S484D/S487D)
Sequence of UniProt Q92985 (whole entry, unmodified, looked up): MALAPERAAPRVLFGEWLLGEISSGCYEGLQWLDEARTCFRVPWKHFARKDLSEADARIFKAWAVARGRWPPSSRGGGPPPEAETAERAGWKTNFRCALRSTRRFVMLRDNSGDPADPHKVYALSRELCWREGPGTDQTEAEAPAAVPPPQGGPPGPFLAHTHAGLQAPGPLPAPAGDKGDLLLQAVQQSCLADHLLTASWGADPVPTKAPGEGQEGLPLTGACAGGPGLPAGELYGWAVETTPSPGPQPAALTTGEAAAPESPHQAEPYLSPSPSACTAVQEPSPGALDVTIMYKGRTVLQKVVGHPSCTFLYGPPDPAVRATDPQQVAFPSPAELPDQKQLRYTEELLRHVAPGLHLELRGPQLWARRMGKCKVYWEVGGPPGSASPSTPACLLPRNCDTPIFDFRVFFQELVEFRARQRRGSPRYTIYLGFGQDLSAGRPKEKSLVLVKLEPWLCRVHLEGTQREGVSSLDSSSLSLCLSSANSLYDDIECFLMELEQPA
`GACGGACTGGGTATCAGGACGTGCTAG` — result for “fitted relative affinity”: -0.734 z-score.
`GACGGTATCGGGTTTTGGGACGTGCTA` — result for “fitted relative affinity”: 0.249 z-score.
For `GACGGACTGGGTAACGGGACGTGCTAG`, “fitted relative affinity” read -1.12 z-score.
`CGAGTTTTCTCTCCCATTCTGTGCTAG` — result for “fitted relative affinity”: 2.21 z-score.
`CACGATCTCAGTTTCGAGACGTGCTAG`: “fitted relative affinity” 3.62 z-score.
`TCAGTAAGCAAAAATGAACTGTGCTAG`: “fitted relative affinity” -1.16 z-score.

Block 2 — method: protein-binding microarray; molecule type: double-stranded DNA, one strand shown; sample: in vitro; tested at: not given; direction: higher = stronger binding
Target: Max-binding protein MNT, bHLH-zipper, MAX partner unstated (MNT, Homo sapiens, UniProt Q99583, residues 220-300)
Notes: k-mer, scored over probes, only values ≥0.25
Target sequence (chain): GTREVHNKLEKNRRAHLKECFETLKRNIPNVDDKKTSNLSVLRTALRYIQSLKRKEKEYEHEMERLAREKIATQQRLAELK
`CCGTGCAC` has an E-score of 0.334.
For `ACGTGACA`, the E-score was 0.461.
`CCGCCCAC` has an E-score of 0.305.
The E-score of `CGTGGAGA` is reported as 0.346.
The E-score of `CGCCCCAA` is reported as 0.285.

Block 3 — method: protein binding microarray; molecule type: double-stranded DNA, one strand shown; sample: in vitro; tested at: not given; baseline: not given; direction: higher = stronger binding
Target: Histone acetyltransferase KAT6A, both winged helices, GST fusion (KAT6A, Homo sapiens, UniProt Q92794, residues 1-181)
Notes: 8-mer, flanks averaged, mean of 2 arrays, mostly near background
Residues (chain): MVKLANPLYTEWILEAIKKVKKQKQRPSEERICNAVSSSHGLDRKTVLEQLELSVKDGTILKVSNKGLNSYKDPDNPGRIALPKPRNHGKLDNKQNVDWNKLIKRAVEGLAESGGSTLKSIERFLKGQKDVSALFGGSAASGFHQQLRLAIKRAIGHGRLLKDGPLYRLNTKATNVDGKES
The E-score of `ACGAACAC` is reported as 0.0747.
The E-score of `CGTAAATA` is reported as 0.0604.
`AGTGTAAT` has an E-score of -0.129.
The E-score of `GCACTCCA` is reported as -0.0858.
`AAACTAAG` has an E-score of -0.0655.
The E-score of `CGTCGCTC` is reported as 0.182.

Mixed results
With `PhoQ, residues 284 288 289 292 302 303 GASLAW` the fold induction was 0.633 (PhoP, residues 12 14 15 18 19 NHFRA (Escherichia coli, UniProt P23836); Sort-seq, item: YFP reporter; E. coli; PhoQ-PhoP variant library, added: 10 µM Mg2+; baseline: high Mg2+ state, higher = stronger signaling).

A few entries again (block 2):
The E-score of `CGCCCCAA` is reported as 0.285.
`CCGCCCAC` has an E-score of 0.305.
